Results collected from several papers.
Protocols differ between the studies behind these lines. “And” joins repeats or separate records; there may be more than shown. ± gives the spread as reported.
TDP1: Tyrosyl-DNA phosphodiesterase 1 (TDP1, Homo sapiens, UniProt Q9NUW8)
UniProt Q9NUW8, sequence (whole entry, looked up): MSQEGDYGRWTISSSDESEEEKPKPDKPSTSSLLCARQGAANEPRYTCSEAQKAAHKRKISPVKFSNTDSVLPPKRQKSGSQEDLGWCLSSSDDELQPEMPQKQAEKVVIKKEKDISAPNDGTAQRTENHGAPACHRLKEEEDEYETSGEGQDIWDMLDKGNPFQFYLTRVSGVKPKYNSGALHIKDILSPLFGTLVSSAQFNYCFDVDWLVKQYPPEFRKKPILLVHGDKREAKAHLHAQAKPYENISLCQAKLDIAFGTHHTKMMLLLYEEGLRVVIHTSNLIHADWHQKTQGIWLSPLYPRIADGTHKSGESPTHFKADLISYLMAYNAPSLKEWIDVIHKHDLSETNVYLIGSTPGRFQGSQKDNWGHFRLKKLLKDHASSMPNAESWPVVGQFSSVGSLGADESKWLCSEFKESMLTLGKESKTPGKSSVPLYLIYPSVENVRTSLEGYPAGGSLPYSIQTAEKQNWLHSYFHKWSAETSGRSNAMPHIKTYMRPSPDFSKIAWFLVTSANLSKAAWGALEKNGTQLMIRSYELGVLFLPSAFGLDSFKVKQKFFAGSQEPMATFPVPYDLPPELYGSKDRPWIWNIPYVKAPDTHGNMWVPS

SMILES | tested on | test | system | conditions | scale | measurement | value
CCCCN1C(=O)c2cccc3c(NCCCCCCN4CCOCC4)ccc(c23)C1=O |  |  | acetonitrile |  |  | emission maximum | 524 nm
COc1cccc(OC)c1-c1cc(C(=O)NC2(C(=O)O)C3CC4CC(C3)CC2C4)nn1-c1ccc(C(=O)N(C)CCOCCOCCN(C)C(=O)[C@H](CCCCNC(=O)[C@H](CC(C)C)NC(=O)C2OC2C(=O)O)NC(=O)CN2CCN(CC(=O)[O-])CCN(CC(=O)[O-])CCN(CC(=O)[O-])CC2)cc1C(C)C.[177Lu+3] (mixture of isomers) |  |  | mouse HT-29 xenograft | 72 h, biodistribution | reference: tumour over spleen | tumour-to-spleen ratio | 4.52
O=C(NS(=O)(=O)c1cccs1)c1cc2ccccc2n1Cc1ccc(Br)c2ccccc12 |  |  | Sprague-Dawley rat, male | oral, 2 mg/kg, 6 h |  | plasma concentration | 110 ng/mL and 127 ng/mL
C/C(N)=N/C(=N\S(=O)(=O)c1ccc(C(F)(F)F)cc1)N1C[C@H](c2ccccc2)C(c2ccc(Cl)cc2)=N1 |  |  | C57BL/6 mouse, adipose tissue | intravenous, 10 mg/kg |  | Cmax | 9830 ng/mL
COc1cccc(OC)c1-c1cc(C(=O)NC2(C(=O)O)C3CC4CC(C3)CC2C4)nn1-c1ccc(C(=O)NCCNC(=O)[C@H](CCCCNC(=O)[C@H](CC(C)C)NC(=O)C2OC2C(=O)O)NC(=O)CN2CCN(CC(=O)[O-])CCN(CC(=O)[O-])CCN(CC(=O)[O-])CC2)cc1C(C)C.[177Lu+3] (mixture of isomers) |  |  | mouse HT-29 xenograft | 168 h, biodistribution | reference: tumour over spleen | tumour-to-spleen ratio | 2.72
FC(F)(F)c1cc2nc(c1)CNCc1cc(C(F)(F)F)cc(n1)CNC2 |  | potentiometry |  |  |  | sum of log protonation constants | 13.7
CC(C)(O)c1ncc([S@](N)(=O)=NC(=O)Nc2c3c(cc4c2CCC4)CCC3)s1 |  | item: general and administration-site disorders | healthy human volunteers | oral, 50 mg twice daily, 14 days, enteric-coated tablet |  | subjects with adverse events | 43%
CCCCN1C(=O)c2cccc3c(NCCCN4CCOCC4)ccc(c23)C1=O |  |  | dioxane |  |  | emission maximum | 505 nm
C=C(NC(=O)c1csc(-c2nc3c(cc2O)-c2nc(cs2)C(=O)NC(C(C)O)C(=O)NC(=C(C)OC)c2nc(cs2)C(=O)NC2c4nc(cs4)C(=O)NC(COC(=O)c4c5c6c(cccc6n4O)COC(=O)C(OC4CC(C)(O)C(N(C)C)C(C)O4)C2OC5)c2nc-3cs2)n1)C(N)=O (stereo not shown) |  |  | Sprague-Dawley rat, female, plasma | intravenous infusion, 6 mg/kg single dose |  | AUC(0-last) | 2350 ng·h/mL
O=C(NC1CCCCC1)c1ccnc(N2Cc3cn(Cc4ccc(F)cc4)nc3C2)n1 |  | metabolic stability | rat, liver microsomes |  |  | half-life | 3.5 min
C=C[C@]1(C)C[C@@H](OC(=O)CSc2ccc(NC(=O)c3ccco3)cc2)[C@]2(C)[C@H](C)CC[C@]3(CCC(=O)[C@H]32)[C@@H](C)[C@@H]1O |  |  | Mycoplasma gallisepticum-infected chickens, plasma | intramuscular, 5 mg/kg, 6 h |  | plasma concentration | 64.6 ng/mL and 19.7 ng/mL and 62.5 ng/mL and 43.8 ng/mL and 26 ng/mL and 78.1 ng/mL and 75 ng/mL and 21.6 ng/mL
[2H]C([2H])([2H])NC(=O)c1ccc(N2C(=S)N(c3ccc(C#N)c(C(F)(F)F)c3)C(=O)C2(C)C)cc1F |  |  | male human, plasma | oral, 80 mg, single dose, fasted |  | Tmax | 93.8 min
Cc1cnc2nc1Nc1cccc(c1)COC/C=C/COCc1cc(ccc1OCCN1CCOCC1)N2 |  |  | BALB/c mice, rhEPO-induced polycythemia | 75 mg/kg, day 2 |  | body weight | 17.9 g and 19 g and 17.8 g and 19.3 g and 18.3 g and 19.7 g
COc1ccnc(C(=O)N[C@H]2COC(=O)[C@H](Cc3ccccc3)[C@@H](OC(=O)C(C)C)[C@H](C)OC2=O)c1O |  |  | silt loam soil | organic carbon 1.0 %, pH 5.5 |  | Freundlich adsorption coefficient Kf | 21.5 mL/g
CN[C@H]1CC[C@H]([C@@]2(C)Oc3c(Cl)cc(C(=O)NCc4c(C)cc(C)[nH]c4=O)c(C)c3O2)CC1 |  |  | healthy men, feces | oral, 200 mg [14C]-valemetostat | reference: dose | excretion | 1.64%
COC(=O)CN1CCN(Cc2cc(-c3nc4ccccc4s3)cc(OC)c2O)CCN(Cc2cc(-c3nc4ccccc4s3)cc(OC)c2O)CC1 |  | UV-vis spectrophotometric titration | aqueous NaCl 0.1 M | 20 µM, 25 °C, pH 3 to 11 |  | pKa2 | 5.09
CC(C(=O)O)n1nc(Cn2cc3cc(OCC[18F])c(Cl)cc3n2)c2ccccc2c1=O (racemic) |  |  | rat, spleen | 2 h |  | tracer uptake | 0.04 %ID/g

SMILES | tested on | test | system | conditions | scale | measurement | value
CCCCN1C(=O)c2cccc3c(NCCN4CCOCC4)ccc(c23)C1=O |  |  | acetonitrile |  |  | emission maximum | 528 nm
Cc1[nH]nc2c1N=C(c1ccccc1Cl)c1cnc(N3CCOCC3)cc1N2 |  |  | nude mouse, HCC1806 xenograft, tumor | oral, 15 mg/kg once daily |  | AUC(0-last) | 2900 ng·h/mL
CCCCN1C(=O)c2cccc3c(NCCCCN4CCOCC4)ccc(c23)C1=O |  |  | methanol |  |  | emission maximum | 532 nm
CC[C@H](C)[C@@H]1NC(=O)[C@H](Cc2ccc(O)cc2)NC(=O)CCCSC[C@@H](C(=O)N(CC(=O)N[C@@H](CC(C)C)C(=O)NCC(N)=O)Cc2ccc(F)cc2)NC(=O)[C@H](CC(N)=O)NC(=O)[C@H](CCC(N)=O)NC1=O |  |  | human | intranasal, 100 µg single dose |  | adverse drug reactions | 0%
CC(=O)N([O-])CCCCCNC(=O)CCC(=O)N([O-])CCCCCNC(=O)CCC(=O)N([O-])CCCCCN.[89Zr+4] |  | radio-TLC | aqueous buffer | 1 d, pH 7.2, 37 °C, 89Zr-labelled complex, added: MgCl2 10-fold excess |  | intact complex | 98.4 ± 1%
COC(=O)c1ccc(C=NOCc2ccc(-c3nc4cc(-c5ccccc5)ccn4c3Nc3ccc(C(=O)O)cc3)cc2)nc1 | TDP1 | enzyme activity, inhibitor |  | 100 µM, unpurified compound |  | inhibition | 86%
C=CC(=O)N1CCCC(n2c(=O)c3ncccc3n(Cc3ccc(Oc4ccccc4)cc3)c2=O)C1 (stereo not shown) |  |  | male BALB/c mouse, plasma | intraperitoneal, 200 mg/kg, 5 min |  | concentration | 29200 ng/mL
CCCCN1C(=O)c2cccc3c(NCCCCCCCCN4CCOCC4)ccc(c23)C1=O |  |  | methanol |  |  | emission maximum | 541 nm
O=C(Nc1cnccc1-c1ccc([18F])cc1)c1ccnc(NC(=O)C2CC2)c1 |  | ex vivo biodistribution, gamma counting | GSK-3β overexpressing transgenic mouse, late stage, left kidney | intravenous, 120 min post-injection, added: tariquidar 15 mg/kg iv, at least 2 h before tracer |  | mean SUV | 1.39
[123I]c1ccc2nc(-c3ccc(-n4ccnn4)nc3)cn2c1 |  |  | male Wistar rat, kidney | intravenous, 4 MBq, 30 min |  | tracer uptake | 1.55 %ID/g
Cc1cc(-c2ccc(C(=O)[C@@H]3CCCC[C@H]3C(=O)Nc3cnn4c3C(=O)NCC4)cc2)[nH]n1 |  |  | human, urine | oral, 200 mg, 0-192 h | reference: dose | cumulative radioactivity recovery | 6.33% and 5.62% and 4.97% and 4.93% and 6.8% and 6.72%
CCCN(C)c1cc(C(F)(F)F)nc(SCCC(=O)NCc2ccco2)n1 |  |  | male Wistar rat, plasma | intraperitoneal, 25 mg/kg |  | terminal elimination rate constant | 0.000177 s⁻¹
O=C(O)c1ccc(Nc2c(-c3ccc(CON=Cc4c(O)c(C(=O)O)cc5ccccc45)cc3)nc3cc(-c4ccccc4)ccn23)cc1 (mixture of isomers) | TDP1 | enzyme activity, inhibitor |  | 100 µM, unpurified compound |  | inhibition | 102%
COc1ccc(-c2cc(=O)c3c(OC)c(O)c(OC)cc3o2)cc1 |  | cyclic voltammetry | DMSO, 0.1 M Bu4NPF6 | 25 °C |  | half-wave potential | -2.12 V vs Ag/AgCl
O=C(Nc1cnccc1-c1ccc([18F])nc1)c1ccnc(NC(=O)C2CC2)c1 |  |  | FVB/NJ mice, both sexes, liver | intravenous, 5 min, median, no P-gp inhibitor |  | SUV | 6.63
CN1Cc2c(NCc3ccc(CN4CCN(c5ccc(C#N)c(F)c5)CC4)cc3)cccc2C(=O)N1C1CCC(=O)NC1=O (stereo not shown) |  |  | mouse xenograft, heart | dose not given |  | organ weight | 111 mg
C=CC(=O)Nc1cc(Nc2nccc(-c3cn(C)c4ccccc34)n2)c(OC)cc1N(C)CCNC |  | storage stability | human dried blood spot | 10 d, -80 °C, MQC level |  | recovery | 96.1%

Repeated from above:
SMILES | tested on | test | system | conditions | scale | measurement | value
[2H]C([2H])([2H])NC(=O)c1ccc(N2C(=S)N(c3ccc(C#N)c(C(F)(F)F)c3)C(=O)C2(C)C)cc1F |  |  | male human, plasma | oral, 80 mg, single dose, fasted |  | Tmax | 93.8 min
Cc1cnc2nc1Nc1cccc(c1)COC/C=C/COCc1cc(ccc1OCCN1CCOCC1)N2 |  |  | BALB/c mice, rhEPO-induced polycythemia | 75 mg/kg, day 2 |  | body weight | 17.9 g and 19 g and 17.8 g and 19.3 g and 18.3 g and 19.7 g
